Experimental data of several laboratories.
Compare with care: the assays were run in different laboratories.
Organism: Escherichia coli

SMILES	test	test system	setting	IC50 [µM]
C=C(C)C(=O)NCCCCOCc1cn(CCCCNC(=O)C(=C)C)n[n+]1C	growth, turbidity OD600	ΔtolC	24 h	> 100
CC[C@H](C)[C@H](NC(=O)[C@H](Cc1c[nH]c2ccccc12)NC(=O)c1ccccc1)C(=O)N[C@H](C(=O)N[C@@H](Cc1ccc(O)cc1)C(=O)N[C@@H](CCCCN)C(=O)N[C@@H](Cc1c[nH]c2ccccc12)C(=O)N[C@H](CCCNC(=N)N)C(=O)N[C@@H](CCCNC(=N)N)C(=O)N[C@@H](CCCCN)C(=O)N[C@H](C(=O)N[C@H](C(=O)N[C@@H](CCCNC(=N)N)C(=O)N[C@@H](Cc1ccc(O)cc1)C(=O)N[C@@H](Cc1c[nH]c2ccccc12)C(=O)N[C@H](C(=O)NCC(=O)N[C@@H](CCCCN)C(=O)N[C@@H](CCCNC(=N)N)C(N)=O)[C@@H](C)O)C(C)C)C(C)C)C(C)C	growth	DH5α	16 h, 37 °C	40
C#CCCCC(=O)N[C@H]1CCOC1=O	LuxR reporter, antagonist	DH5α sensor strain	with: OHHL 200 nM	1 to 4
C[C@@H](O)[C@H](NC(=O)[C@H](Cc1c[nH]c2ccccc12)NC(=O)[C@H](CCCNC(=N)N)NC(=O)[C@H](Cc1c[nH]c2ccccc12)NC(=O)[C@H](CCCNC(=N)N)NC(=O)CNC(=O)[C@@H](NC(=O)[C@H](CCCNC(=N)N)NC(=O)[C@H](CCCNC(=N)N)NC(=O)[C@H](CC(N)=O)NC(=O)[C@H](Cc1c[nH]c2ccccc12)NC(=O)[C@H](CCCNC(=N)N)NC(=O)[C@H](Cc1c[nH]c2ccccc12)NC(=O)c1ccccc1)[C@@H](C)O)C(=O)NCC(=O)N1CCC[C@H]1C(N)=O	growth	DH5α	16 h, 37 °C	39
CC[C@H](C)[C@@H]1NC(=O)CNC(=O)[C@H](CCCNC(=N)N)NC(=O)[C@H](Cc2ccc(O)cc2)NC(=O)[C@@H]2CSSC[C@H](NC1=O)C(=O)N[C@@H](Cc1ccc(O)cc1)C(=O)N[C@@H](CCCNC(=N)N)C(=O)N[C@@H](CCCNC(=N)N)C(=O)N[C@H](C(=O)N[C@@H](CCCNC(=N)N)C(N)=O)CSSC[C@H](NC(=O)[C@H](Cc1c[nH]c3ccccc13)NC(=O)[C@@H](N)CCCCN)C(=O)N[C@@H](Cc1ccccc1)C(=O)N[C@@H](CCCNC(=N)N)C(=O)N[C@@H](C(C)C)C(=O)N2	bacterial growth	DH5α	50% growth inhibition	2.03
CC[C@H](C)[C@H](NC(=O)[C@H](Cc1c[nH]c2ccccc12)NC(=O)c1ccccc1)C(=O)N[C@H](C(=O)N[C@@H](Cc1ccc(O)cc1)C(=O)N[C@@H](CCCCN)C(=O)N[C@@H](Cc1c[nH]c2ccccc12)C(=O)N1CCC[C@@H]1C(=O)N[C@@H](CCCNC(=N)N)C(=O)N[C@@H](CCCCN)C(=O)N[C@H](C(=O)N[C@H](C(=O)N[C@@H](CCCNC(=N)N)C(=O)N[C@@H](Cc1ccc(O)cc1)C(=O)N[C@@H](Cc1c[nH]c2ccccc12)C(=O)N[C@H](C(=O)NCC(=O)N[C@@H](CCCCN)C(=O)N[C@@H](CCCNC(=N)N)C(N)=O)[C@@H](C)O)C(C)C)C(C)C)C(C)C	growth	DH5α	16 h, 37 °C	44
CCCCCCCCCCCCCC(=O)N[C@@H](Cc1c[nH]c2ccccc12)C(=O)N[C@@H](Cc1c[nH]c2ccccc12)C(=O)N[C@H](C(=O)N[C@@H](Cc1ccccc1)C(=O)N[C@@H](CCCNC(=N)N)C(=O)N[C@H](C(=O)N[C@H](C(=O)N[C@@H](Cc1ccc(O)cc1)C(=O)N1CCC[C@@H]1C(=O)N[C@@H](CCCNC(=N)N)C(=O)N[C@H](C(=O)N[C@H](C(=O)N[C@@H](Cc1ccc(O)cc1)C(=O)N[C@@H](CCCNC(=N)N)C(=O)N[C@@H](CCCNC(=N)N)C(=O)N[C@H](C(=O)N[C@@H](CCCNC(=N)N)C(=O)N[C@@H](Cc1c[nH]c2ccccc12)C(=O)N[C@H](C(=O)NCC(=O)N1CCC[C@H]1C(=O)N[C@@H](CCCCN)C(=O)N[C@@H](CCCCN)C(N)=O)[C@@H](C)O)C(C)C)C(C)C)[C@@H](C)CC)C(C)C)C(C)C)C(C)C	bacterial growth	DH5α	50% growth inhibition	> 100
C=CS(=O)(=O)NCCCCCCOCc1cn(CCCCCCNS(=O)(=O)C=C)n[n+]1C	growth, turbidity OD600	ΔtolC	24 h	> 100
CC(C)C[C@@H]1NC(=O)[C@H](CCCNC(=N)N)NC(=O)[C@H](CCCNC(=N)N)NC(=O)[C@@H](NC(=O)[C@@H](N)CCC(=O)O)CSSC[C@@H](C(=O)N[C@@H](CCCNC(=N)N)C(=O)NCC(=O)N[C@@H](CCCNC(=N)N)C(N)=O)NC(=O)[C@H](Cc2ccc(O)cc2)NC(=O)[C@H]([C@@H](C)O)NC(=O)[C@H](C(C)C)NC(=O)[C@@H]2CSSC[C@H](NC1=O)C(=O)N[C@@H](Cc1ccc(O)cc1)C(=O)N[C@@H](CCCCN)C(=O)N[C@@H](CCC(N)=O)C(=O)N[C@@H](CCCNC(=N)N)C(=O)N2	bacterial growth	DH5α	50% growth inhibition	14.9
C=CC(=O)NCCCCCCOCc1cn(CCCCCCNC(=O)C=C)nn1	growth, turbidity OD600	ΔtolC	24 h	> 100

For quick reference, copied from above:
SMILES	test	test system	setting	IC50 [µM]
CC[C@H](C)[C@@H]1NC(=O)CNC(=O)[C@H](CCCNC(=N)N)NC(=O)[C@H](Cc2ccc(O)cc2)NC(=O)[C@@H]2CSSC[C@H](NC1=O)C(=O)N[C@@H](Cc1ccc(O)cc1)C(=O)N[C@@H](CCCNC(=N)N)C(=O)N[C@@H](CCCNC(=N)N)C(=O)N[C@H](C(=O)N[C@@H](CCCNC(=N)N)C(N)=O)CSSC[C@H](NC(=O)[C@H](Cc1c[nH]c3ccccc13)NC(=O)[C@@H](N)CCCCN)C(=O)N[C@@H](Cc1ccccc1)C(=O)N[C@@H](CCCNC(=N)N)C(=O)N[C@@H](C(C)C)C(=O)N2	bacterial growth	DH5α	50% growth inhibition	2.03
CC[C@H](C)[C@H](NC(=O)[C@H](Cc1c[nH]c2ccccc12)NC(=O)c1ccccc1)C(=O)N[C@H](C(=O)N[C@@H](Cc1ccc(O)cc1)C(=O)N[C@@H](CCCCN)C(=O)N[C@@H](Cc1c[nH]c2ccccc12)C(=O)N1CCC[C@@H]1C(=O)N[C@@H](CCCNC(=N)N)C(=O)N[C@@H](CCCCN)C(=O)N[C@H](C(=O)N[C@H](C(=O)N[C@@H](CCCNC(=N)N)C(=O)N[C@@H](Cc1ccc(O)cc1)C(=O)N[C@@H](Cc1c[nH]c2ccccc12)C(=O)N[C@H](C(=O)NCC(=O)N[C@@H](CCCCN)C(=O)N[C@@H](CCCNC(=N)N)C(N)=O)[C@@H](C)O)C(C)C)C(C)C)C(C)C	growth	DH5α	16 h, 37 °C	44
